Measurements of several laboratories.
Protocols differ between the studies behind these lines. ± marks the error that the study gave.

Molecule | assay | test system | setting | trough concentration
COc1cc(Nc2ncc3c(n2)-c2ccc(Cl)cc2C(c2c(F)cccc2OC)=NC3)ccc1C(=O)O | – | children without grade ≥2 toxicity, plasma | oral, 80 mg/m2, day 4, mean | 1580 ± 350 nM
teicoplanin | – | human, standard regimen, serum | intravenous, 400 mg q12h loading, 200 mg/day, day 4 | 12000 ± 3760 ng/mL
C[C@@H](Oc1ccc(S(C)(=O)=O)cc1C(=O)N1C[C@@H]2C[C@]2(c2cc(C(F)(F)F)on2)C1)C(F)(F)F | – | human male, CSF | oral, 5 mg once daily, 312 h | 5.6 nM
CN1CC[C@@H](NC(=O)Nc2ccc(C#N)cc2)C[C@@H]1c1nc2ccccc2[nH]1 | – | Japanese patients, plasma | oral, 25 mg once daily, cycle 1 day 21, geometric mean | 88 ng/mL
COc1c(C)c2c(c(O)c1C/C=C(\C)CCC(=O)O)C(=O)OC2 | – | stable kidney transplant recipients, plasma | oral, dose not given, 12 h post-dose, steady state | 3000 ± 2070 ng/mL
O=C(Nc1c(Cl)cncc1Cl)c1ccc(OC(F)F)c(OCC2CC2)c1 | – | human, age ≥18 years, plasma | topical, 0.3% cream, 8 weeks | 1.78 ng/mL
C=C(C)[C@@H]1CC[C@]2(NCCN3CCS(=O)(=O)CC3)CC[C@]3(C)[C@H](CC[C@@H]4[C@@]5(C)CC=C(C6=CC[C@@](CF)(C(=O)O)CC6)C(C)(C)[C@@H]5CC[C@]43C)[C@@H]12 | LC-MS/MS | HIV-1-infected treatment-naive adults, plasma | oral, 40 mg once daily, day 7, monotherapy | 220 ng/mL
C[C@@H](c1ncncc1F)[C@](O)(Cn1cncn1)c1ccc(F)cc1F | – | patients, hematological disorders, CYP2C19 intermediate metabolizers, plasma | 200 mg, 12 h, steady state, median | 3040 ng/mL

Repeated from above:
Molecule | assay | test system | setting | trough concentration
O=C(Nc1c(Cl)cncc1Cl)c1ccc(OC(F)F)c(OCC2CC2)c1 | – | human, age ≥18 years, plasma | topical, 0.3% cream, 8 weeks | 1.78 ng/mL
